Measurements collected from several papers.
Compare with care: the assays were run in different laboratories. Numbers after ± are the reported error.

SMILES	assay	system	setting	how to read	endpoint	value
C[C@]12CC[C@@H]3c4ccc(OCC(=O)N[C@@H](CCCCNC(=O)CN5CCN(CC(=O)[O-])CCN(CC(=O)[O-])CCN(CC(=O)[O-])CC5)C(=O)O)cc4CC[C@H]3[C@@H]1CCC2=O.[177Lu+3]		female nude mice, MCF7 xenograft	4 h post injection		tumour uptake	2.55 ± 0.63 % IA/g
COc1cc(-c2nc3ccccc3s2)cc(CN2CCN(CC(=O)O)CCN(CC(=O)O)CC2)c1O	UV-Vis pH titration		25 °C, ionic strength 0.1 M NaCl		pKa3	7.92
COc1cc(N(C)CCN(C)C)c(NC(=O)CCSCC(NC(C)=O)C(=O)O)cc1Nc1nccc(-c2cn(C3CC3)c3ccccc23)n1 (stereo not shown)	radio-HPLC	human, feces	dose not given, 96 to 240 h, sample holds 16.61% dose	baseline: sample radioactivity	share of radioactivity	2.69%
CCCC[C@@H]1NC(=O)[C@@H](NC(=O)[C@H](CCC(=O)O)NC(=O)CNC(=O)CN2CCN(CC(=O)O)CCN(CC(=O)O)CCN(CC(=O)O)CC2)CCCCNC(=O)C[C@@H](C(N)=O)NC(=O)[C@H](C(C)C)NC(=O)[C@@H]2CCCN2C(=O)[C@H](CCCNC(=N)N)NC(=O)CNC(=O)[C@H](Cc2c[nH]c3ccccc23)NC(=O)[C@H](CCCNC(=N)N)NC(=O)[C@@H](Cc2ccccc2)NC(=O)[C@H](Cc2c[nH]cn2)NC(=O)[C@H](CCC(=O)O)NC1=O [gallium-67 labelled]		C57 mice, B16/F10 lung metastases, blood	intravenous, 0.037 MBq/mouse, 2 h		tissue uptake	0.21 ± 0.15 %ID/g
CCCC[C@H](NC(=O)[C@H](CC(C)C)N(C)C(=O)CNC(=O)[C@@H](NC(=O)[C@H](Cc1ccccc1)NC(=O)[C@H](CCCCN)NC(=O)[C@@H](N)CC(=O)O)C(C)C)C(N)=O		anesthetized Gottingen minipig	subcutaneous, 30 µg/kg	baseline: baseline	mean arterial pressure	-5.98 ± 4.75%
C[N+](C)(C)CCO.O=C(O)[C@H](O)Cc1ccccc1.O=C([O-])[C@H](O)Cc1ccccc1	thermogravimetric analysis		5% mass loss, nitrogen		decomposition temperature	199 °C
CCC(C)n1c(C(=O)Nc2cnc(C(=O)NC)n(CC(C)C)c2=O)ncc(NC(=O)c2ncc(NC(=O)c3ccccc3)c(=O)n2Cc2ccc(OC)cc2)c1=O (stereo not shown)	HPLC	Tween 20/ethanol/phosphate buffer (7:3:90)	24 h, pH 7.5		decomposition	0.7%
O=C(O)[C@@H]1C[C@@H](O)CN1C(=O)[C@@H]1CCCN1	potentiometric titration	water	40 °C, 0.15 mol/dm3 NaCl		pKa3	10.4
COc1ccc([C@@H]2CC(=O)c3c(O)cc(O[C@@H]4O[C@H](CO[C@@H]5O[C@@H](C)[C@H](O)[C@@H](O)[C@H]5O)[C@@H](O)[C@H](O)[C@H]4O)cc3O2)cc1O		rat plasma	15.62 ng/mL, three freeze-thaw cycles		measured concentration	17.1 ± 0.38 ng/mL
CCCC(CCC)NC(=O)c1ccc(OC)c(O)c1	LC-MS	Sprague-Dawley rats, pooled sexes, plasma	oral, 200 mg/kg of parent drug, 1 h	baseline: total peak area	metabolite peak area	24.3%
CCOc1ccc2c(c1)C(C)=CC(C)(C)N2c1cc(OCC)cc2c1NC(C)(C)C=C2C	LC-MS/MS	laying hens, muscle	oral, 50 mg/kg feed of ethoxyquin, 56 days		residue concentration	0.3 ± 0.7 ng/g
O=C(CCc1ccc(CNC(C(=O)OC2CCCC2)C2CCCCC2)cn1)NO (stereo not shown)		human, plasma	oral, 5 mg single dose, geometric mean		AUC(0-t)	13.9 ng·h/mL
CC(C)(O)c1ncc([S@](N)(=O)=NC(=O)Nc2c3c(cc4c2CCC4)CCC3)s1		healthy human volunteers, plasma	oral, 100 mg single dose, fasted, spray-dried dispersion		dose-normalised AUC(0-t)	985 ng·h/mL/mg
O=C1c2sc(-c3ccc(N4CCC(CO)CC4)nc3F)nc2CCN1c1cccnc1	PET imaging	rhesus monkey, whole brain		baseline: peak over 60 min	brain washout ratio	15.5
NC12CNCCNCC(NCc3ccc(CNC(=O)CCCC(=O)NCc4ccc(-c5nncnn5)cc4)cc3)(CNCCNC1)CNCCNC2.[64Cu+2]	OLINDA dosimetry	red marrow	pretargeting, 24-h interval		mean absorbed dose	0.0302 rad/mCi
COCCOCCOCCOCCOCCOCCOCCOCCC(=O)NCCCc1cc2cc3nc(cc4[nH]c(cc5nc(c(OC)c1[nH]2)C(=O)C5(C)C)cc4CCc1ccc(C(=O)O)cc1)CC3(C)C		DMF	room temperature		Qy absorption FWHM	22 nm

SMILES	assay	system	setting	how to read	endpoint	value
CN1C(=O)[C@@H](Cc2ccc(O)c(I)c2)NC(=O)CNC(=O)[C@H](Cc2ccc3ccccc3c2)NC(=O)[C@H](CCCNC(=N)N)NC(=O)[C@H]1CCCNC(=O)c1ccc(CNC(=O)CN2CCN(CC(=O)O)CCN(CC(=O)O)CC2)cc1 [fluorine-18 labelled]		CB17 SCID mouse, female, Daudi lymphoma xenograft	intravenous, 300 kBq, 1 h	baseline: tumour over muscle	tissue ratio	29.2 ± 4
O=c1nc(NO)ccn1[C@@H]1O[C@H](CO)[C@@H](O)[C@H]1O	RT-PCR, measured: CYP2C11	normal rat, liver	oral, 80 mg/kg twice daily, 5 days	baseline: untreated rats	mRNA level	0.1 fold
COc1cc(-c2nc3ccccc3s2)cc(CN2Cc3cccc(n3)CNCc3cccc(n3)C2)c1O	UV-vis spectrophotometric titration, measured: HL/L- equilibrium	MeOH/water with NaCl	50 µM, room temperature, NaCl 0.1 M, MeOH ≤20% v/v		pKa4	10.1
Cn1c(=O)oc2ccc(-c3ccc(CC(C#N)NC(=O)C4CNCCCO4)c(F)c3)cc21 (stereo not shown)	measured: blood bilirubin increased	human	15 mg single dose, fasted		subjects with TRAE	0%
Cc1cnc(Nc2ccc(OCCOc3ccc(/N=N/c4ccc(C(=O)NCCC(=O)O)cc4)cc3C(=O)O)cc2)nc1Nc1cccc(S(=O)(=O)NC(C)(C)C)c1		C57BL/6 mouse, female, colon tissue	oral, 10 mg/kg, 0.5 to 24 h		concentration	< 2 ng/g
CC(C)C[C@@H]1NC(=O)[C@@H](Cc2ccccc2)NC(=O)[C@H](CCN)NC(=O)[C@@H](NC(=O)[C@H](CN)NC(=O)[C@@H](NC(=O)C(CCN)C2CCCCC2)[C@@H](C)O)CCNC(=O)[C@H]([C@@H](C)O)NC(=O)[C@H](CCN)NC(=O)[C@H](CCN)NC1=O (stereo partly shown)		CD-1 mouse male, kidney	subcutaneous, 17.2 mg/kg, 4 h		tissue concentration	309000 ng/g
CCN(CC)c1ccc2c(-c3ccc(S(=O)(=O)NCCNC(=O)CN4CCN(CC(=O)[O-])CCN(CC(=O)O)CCN(CC(=O)[O-])CC4)cc3S(=O)(=O)[O-])c3ccc(=[N+](CC)CC)cc-3oc2c1.[64Cu+2]	microPET imaging	athymic nude mice, U-87 MG glioma xenograft	250 µCi, 2 h post-injection		tumour uptake	7.82 ± 1.06 %ID/g
COc1cc(OC)cc(C2=C3C(C)=C(I)C(C)=[N+]3[B-](F)(F)n3c(/C=C/c4c[nH]c5ccccc45)c(I)c(C)c32)c1		DMSO			Stokes shift	930 cm⁻¹
C=C(c1cc(F)c(C(=O)O)c(F)c1)c1cc2c(cc1C)C(C)(C)CCC2(C)C		Sprague-Dawley rat, male	oral, 100 mg/kg, 3 h, sesame oil vehicle		blood triglycerides	123 ± 38.9 mg/dL
Cn1ncc2c1N(CCCCNC/C=C/C#N)c1cc(Cl)ccc1CC2.O=C(O)/C=C\C(=O)O		mouse	oral, 10 mg/kg		mean residence time	~6.5 h
COc1cc2c(cc1OC)CN(CCCCn1ccc3cc(OCC[18F])ccc31)C2		male ICR mice	intravenous, 280 kBq, 15 min post-injection		pancreas uptake	23.7 ± 2.35 %ID/g
N=C(N)NCCC[C@H](NC(=O)[C@@H]1CSSC[C@H](NC(=O)[C@H](Cc2ccc3ccccc3c2)NC(=O)[C@H](CCCNC(=N)N)NC(=O)[C@H](CCCNC(=N)N)NC(=O)CN2CCN(CC(=O)O)CCN(CC(=O)O)CCN(CC(=O)O)CC2)C(=O)N[C@@H](Cc2ccc(O)cc2)C(=O)N[C@@H](CCCNC(N)=O)C(=O)N[C@@H](CCCCN)C(=O)N[C@H](CCCCN)C(=O)N2CCC[C@H]2C(=O)N[C@@H](Cc2ccc(O)cc2)C(=O)N[C@@H](CCCNC(=N)N)C(=O)N[C@@H](CCCNC(N)=O)C(=O)N1)C(N)=O [copper-64 labelled]	PET	mice with CHO-CXCR4 tumours, CHO-CXCR4 tumour	100 µCi, 4 h		tumour uptake	3.58 ± 0.67 %ID/g
CCCC[C@H](NC(=O)CNC(=O)CNC(=O)CN1CCN(CC(=O)O)CCN(CC(=O)O)CCN(CC(=O)O)CC1)C(=O)N[C@H]1Cc2cn(nn2)CCCC[C@@H](C(N)=O)NC(=O)[C@H](Cc2c[nH]c3ccccc23)NC(=O)[C@H](CCCNC(=N)N)NC(=O)[C@@H](Cc2ccccc2)NC(=O)[C@H](Cc2c[nH]cn2)NC1=O		SCID hairless mouse, female, urine and feces	intravenous, dose not given, 90 min, with: unlabelled NDP-α-MSH blocking		excretion	61.7 ± 9%
C[N+](C)(C)CC(CC(=O)[O-])OC(=O)CCC(=O)Nc1ccn([C@@H]2O[C@H](CO)[C@@H](O)C2(F)F)c(=O)n1 (stereo partly shown)		extracted rat plasma	15.00 ng/mL, 8 h, 10 °C, autosampler stability, low QC		measured concentration	16.8 ± 0.3 ng/mL
CC[C@@H](C)[C@@H](NC(=O)[C@@H](C)NC(=O)[C@@H](CCCCN)NC(=O)[C@@H](CC(C)C)NC(=O)[C@@H](C)NC(=O)[C@H](NC(=O)[C@@H](CCCCN)NC(=O)[C@@H](CC(C)C)NC(=O)[C@H](NC(=O)[C@@H](CCCCN)NC(=O)[C@@H](CCCCN)NC(=O)[C@@H](CCCCN)NC(=O)[C@@H](C)NC(=O)[C@@H](CCCCN)NC(=O)[C@@H](CO)NC(=O)[C@@H](Cc1ccccc1)NC(=O)[C@H](NC(=O)[C@@H](CCCCN)NC(=O)[C@@H](CC(C)C)NC(=O)[C@@H](Cc1ccccc1)NC(=O)[C@@H](CO)NC(=O)[C@@H](CCCCN)NC(=O)[C@@H](Cc1c[nH]c2ccccc12)NC(=O)[C@@H](CCCCN)NC(C)=O)[C@H](C)O)C(C)C)[C@H](C)O)C(=O)N[C@H](CO)C(=O)N[C@H](CCCCN)C(N)=O	circular dichroism	benign aqueous buffer	pH 7.0, 5 °C, at 222 nm	negative is more helical	mean residue molar ellipticity	900 deg cm2/dmol
